Published values from different studies.
Protocols differ between the studies behind these lines. Several values in a cell are separate wells, animals, samples, runs or records. Numbers after ± are the reported error.

| Structure (SMILES) | test | test system | setting | scale | quantity | value |
| --- | --- | --- | --- | --- | --- | --- |
| CCCCCCCCCCCCCCCC(=O)N[C@@H](CCC(=O)NCCOCCOCCC(=O)NCCOCCOCCC(=O)NCCCC[C@H](NC(=O)[C@H](CC(=O)O)NC(=O)[C@H](CC(C)C)NC(=O)[C@H](Cc1ccc(O)cc1)NC(=O)[C@H](CCCCN)NC(=O)[C@H](CO)NC(=O)[C@H](Cc1ccc(O)cc1)NC(=O)[C@H](CC(=O)O)NC(=O)[C@H](CO)NC(=O)[C@@H](NC(=O)[C@H](Cc1ccccc1)NC(=O)[C@@H](NC(=O)CNC(=O)[C@H](CCC(N)=O)NC(=O)[C@@H](CO)NC(=O)[C@@H](N)Cc1c[nH]cn1)[C@@H](C)O)[C@@H](C)O)C(=O)N[C@@H](CCCNC(=N)N)C(=O)N[C@@H](CCCNC(=N)N)C(=O)N[C@@H](C)C(=O)N[C@@H](CCC(N)=O)C(=O)N[C@@H](CC(=O)O)C(=O)N[C@@H](Cc1ccccc1)C(=O)N[C@H](C(=O)N[C@@H](CCC(N)=O)C(=O)N[C@@H](Cc1c[nH]c2ccccc12)C(=O)N[C@@H](CC(C)C)C(=O)N[C@@H](CC(C)C)C(=O)N[C@@H](CC(N)=O)C(=O)N[C@H](C(=O)NCC(=O)NCC(=O)N1CCC[C@H]1C(=O)N[C@@H](CO)C(=O)N[C@@H](CO)C(=O)NCC(=O)N[C@@H](C)C(=O)N1CCC[C@H]1C(=O)N1CCC[C@H]1C(=O)N1CCC[C@H]1C(=O)N[C@@H](CO)C(N)=O)[C@@H](C)O)C(C)C)C(=O)O | – | rhesus monkey, plasma | subcutaneous, 60 µg/kg, single dose | – | Cmax | 0.0434 µg/mL |
| CC(C)[C@@H]1NC(=O)CNC(=O)[C@H](CC(N)=O)NC(=O)[C@H](CCCNC(=N)N)NC(=O)[C@H](Cc2ccc(O)cc2)NC(=O)[C@H](C(C)C)NC(=O)[C@@H](NC(=O)[C@@H](NC(=O)[C@H](CC(N)=O)NC(=O)[C@H](Cc2c[nH]c3ccccc23)NC(=O)[C@H](C)NC(=O)[C@H](Cc2ccccc2)NC(=O)CNC(=O)[C@H](CCCCN)NC(=O)[C@H](Cc2ccccc2)NC(=O)[C@H](Cc2ccccc2)NC(=O)[C@H](CCCCN)NC(=O)OCC2c3ccccc3-c3ccccc32)C(C)C)CSSC[C@@H](C(=O)N[C@@H](Cc2c[nH]cn2)C(=O)N[C@@H](CCCNC(=N)N)C(=O)N[C@@H](CCCNC(=N)N)C(=O)N[C@@H](C)C(=O)N[C@@H](CC(N)=O)C(N)=O)NC(=O)[C@H](C(C)C)NC(=O)[C@H](CCCNC(=N)N)NC1=O | – | ICR mouse, blood | intramammary, 10 mg/kg, day 5, 3 d dosing | – | lymphocytes | 72.9 ± 2.34% |
| COc1ccc(CNc2ccc3c(c2)S(=O)(=O)C=C3)cc1 | – | male C57BL/6 mice | i.p., 5 mg/kg, day 8, repeated dosing | – | spleen weight | 0.123 g |
| Cc1ccccc1-c1ccc(-c2nc(-c3ccc(CN(C)CCCC(=O)O)c([18F])c3)no2)cc1C(F)(F)F | – | rat, lung | 2 h | – | tracer uptake | 0.44 %ID/g |
| CC[C@H](C)[C@H](NC(=O)[C@H](C)NC(=O)[C@H](CCCCN)NC(=O)[C@H](CC(C)C)NC(=O)[C@@H](N)Cc1ccccc1)C(=O)N[C@@H](CCCCN)C(=O)N[C@@H](CCCCN)C(=O)N[C@@H](Cc1ccccc1)C(=O)NCC(=O)N[C@@H](CCCCN)C(=O)N[C@@H](CCC(=O)O)C(=O)N[C@@H](Cc1ccccc1)C(=O)N[C@@H](CCCCN)C(=O)N[C@@H](CCCCN)C(=O)N[C@H](C(=O)NCC(=O)N[C@@H](C)C(=O)N[C@@H](CCCCN)C(=O)N[C@@H](CC(C)C)C(=O)N[C@@H](CCCCN)C(=O)O)[C@@H](C)CC | – | human red blood cells | 4 mg/L, 1 h, mean of replicates | – | hemolysis | 0.429% |
| CC(C)=CCC/C(C)=C/CCn1cc(CC(P(=O)(O)O)P(=O)(O)O)nn1 | – | CD-1 mice, pooled bile | intravenous, 0.3 mg/kg, 24 h | – | bile concentration | not detected |
| CC[C@H](C)[C@H](NC(=O)[C@H](Cc1ccc(O)cc1)NC(=O)[C@@H](NC(=O)[C@H](CCCNC(=N)N)NC(=O)[C@@H](N)CC(=O)O)C(C)C)C(=O)N[C@@H](Cc1c[nH]cn1)C(=O)N1CCC[C@H]1C(=O)O | – | Beagle dogs, both sexes, plasma | subcutaneous, 10 mg/kg/day, day 0 | – | half-life | 30.9 ± 12.6 min |
| CC(C)C[C@@H](NC(=O)[C@@H](CCCNC(=N)N)NC(=O)[C@@H](Cc1c[nH]cn1)NC(=O)[C@@H](Cc1c[nH]c2ccccc12)NC(=O)[C@@H](Cc1c[nH]cn1)NC(=O)[C@@H](Cc1ccccc1)NC(=O)[C@H](NC(=O)[C@@H](Cc1ccc(O)cc1)NC(=O)CNC(=O)CNC(=O)CCOCCOCCOCCNC(=O)CN1CCN(CC(=O)O)CCN(CC(=O)O)CC1)[C@H](C)O)C(=O)N[C@H](CC(N)=O)C(=O)N1CCC[C@@H]1C(=O)O [gallium-68 labelled] | – | C57BL/6 mice, male, pancreas | intravenous, 1.85 MBq, 60 min, together with: GP12 blocking | – | tissue uptake | 0.84 ± 0.17 %ID/g |
| CSCC[C@H](N)C(=O)N[C@@H](C)C(=O)N[C@@H](CCCNC(=N)N)C(=O)N[C@@H](CCCNC(=N)N)C(=O)N[C@@H](CC(=O)O)C(=O)N[C@@H](CCCCN)C(=O)N[C@H](C(=O)N[C@@H](CC(=O)O)C(=O)N[C@@H](Cc1ccccc1)C(=O)N[C@@H](C)C(=O)N[C@@H](CCCNC(=N)N)C(=O)N[C@@H](CCCNC(=N)N)C(=O)N[C@@H](CCCNC(=N)N)C(=O)N[C@@H](CCCNC(=N)N)C(=O)NCCCCCC(=O)NCCCCC(NC(=O)CCCCCNC(=O)[C@H](CCCNC(=N)N)NC(=O)[C@H](CCCNC(=N)N)NC(=O)[C@H](CCCNC(=N)N)NC(=O)[C@H](CCCNC(=N)N)NC(=O)[C@H](C)NC(=O)[C@H](Cc1ccccc1)NC(=O)[C@H](CC(=O)O)NC(=O)[C@@H](NC(=O)[C@H](CCCCN)NC(=O)[C@H](CC(=O)O)NC(=O)[C@H](CCCNC(=N)N)NC(=O)[C@H](CCCNC(=N)N)NC(=O)[C@H](C)NC(=O)[C@@H](N)CCSC)[C@@H](C)O)C(=O)NCCCCC(NC(=O)C(CCCCNC(=O)CCCCCNC(=O)[C@H](CCCNC(=N)N)NC(=O)[C@H](CCCNC(=N)N)NC(=O)[C@H](CCCNC(=N)N)NC(=O)[C@H](CCCNC(=N)N)NC(=O)[C@H](C)NC(=O)[C@H](Cc1ccccc1)NC(=O)[C@H](CC(=O)O)NC(=O)[C@@H](NC(=O)[C@H](CCCCN)NC(=O)[C@H](CC(=O)O)NC(=O)[C@H](CCCNC(=N)N)NC(=O)[C@H](CCCNC(=N)N)NC(=O)[C@H](C)NC(=O)[C@@H](N)CCSC)[C@@H](C)O)NC(=O)CCCCCNC(=O)[C@H](CCCNC(=N)N)NC(=O)[C@H](CCCNC(=N)N)NC(=O)[C@H](CCCNC(=N)N)NC(=O)[C@H](CCCNC(=N)N)NC(=O)[C@H](C)NC(=O)[C@H](Cc1ccccc1)NC(=O)[C@H](CC(=O)O)NC(=O)[C@@H](NC(=O)[C@H](CCCCN)NC(=O)[C@H](CC(=O)O)NC(=O)[C@H](CCCNC(=N)N)NC(=O)[C@H](CCCNC(=N)N)NC(=O)[C@H](C)NC(=O)[C@@H](N)CCSC)[C@@H](C)O)C(N)=O)[C@@H](C)O (stereo partly shown) | – | C57BL/6 mouse female, pancreas | dose not given, 3 h | reference: total | tissue distribution | 0.6% and 1.46% and 1.39% |
| CC(=O)CCC1C(=O)NC(C(C)C)C(=O)NC(Cc2cc(O)cc(F)c2)C(=O)N2CCCC(N2)C(=O)OC(C(C)=CC=CC(=O)N2CCCCO2)CC=CC=CC(O)C(C)C1O (stereo not shown) | – | male Sprague-Dawley rat, lung | oral, 5 mg/kg | – | AUC | 2.74 µg·h/mL |
| CSCC[C@H](NC(=O)CNC(=O)[C@H](CCCCN)NC(=O)[C@H](CC(C)C)NC(=O)[C@@H]1CCCN1C(=O)[C@H](CO)NC(=O)[C@H](Cc1c[nH]cn1)NC(=O)[C@H](Cc1c[nH]c2ccccc12)NC(=O)[C@H](CCCNC(=N)N)NC(=O)[C@H](CC(C)C)NC(=O)[C@H](CCCNC(=N)N)NC(=O)[C@H](Cc1c[nH]c2ccccc12)NC(=O)[C@H](CS)NC(=O)CCCCCNC(=O)CN1CCN(CC(=O)O)CCN(CC(=O)O)CCN(CC(=O)O)CC1)C(=O)O [copper-64 labelled] | PET imaging | BALB/c nude mice, kidney | intravenous, dose not given, 30 h, Huh-7 tumour-bearing | – | tissue uptake | 4.14 ± 0.78 %ID/g |
| CC[C@H](C)[C@H](NC(=O)[C@H](CCCCN)NC(=O)CNC(=O)[C@H](CC(C)C)NC(=O)[C@H](Cc1ccccc1)NC(=O)[C@H](CCCCN)NC(=O)[C@H](CO)NC(=O)[C@H](Cc1ccccc1)NC(=O)[C@H](Cc1c[nH]c2ccccc12)NC(=O)[C@H](CCC(N)=O)NC(=O)[C@@H](NC(=O)[C@H](Cc1ccccc1)NC(=O)CCCCCNC(=O)CN1CCN(CC(=O)O)CCN(CC(=O)O)CCN(CC(=O)O)CC1)C(C)C)C(=O)N[C@@H](CCC(=O)O)C(=O)N1CCC[C@H]1C(=O)N[C@@H](CC(=O)O)C(=O)N[C@H](C(=O)N[C@@H](CO)C(=O)N[C@@H](CCC(N)=O)C(=O)N[C@H](C(=O)N[C@@H](CCC(N)=O)C(=O)N[C@@H](CC(=O)O)C(=O)N1CCC[C@H]1C(=O)N[C@@H](CC(N)=O)C(=O)N[C@@H](CC(=O)O)C(=O)N[C@@H](CCC(N)=O)C(=O)N[C@@H](Cc1ccc(O)cc1)C(=O)N[C@@H](CCC(=O)O)C(=O)N1CCC[C@H]1C(=O)N[C@@H](Cc1ccccc1)C(=O)O)C(C)C)C(C)C [copper-64 labelled] | dynamic PET | mouse both sexes, CT26 tumour, checkpoint inhibitor-treated, tumour | intravenous, 100 µCi/mouse, 330 s | – | SUVmean | 2.56 SUV |
| CC[C@H](C)[C@H](NC(=O)CN)C(=O)N[C@@H](CCCNC(=N)N)C(=O)N[C@@H](CCCCN)C(=O)N[C@@H](Cc1c[nH]c2ccccc12)C(=O)N[C@@H](Cc1ccccc1)C(=O)N[C@@H](CCCCN)C(=O)N[C@@H](CCCCN)C(=O)N[C@@H](C)C(=O)N[C@@H](C)C(=O)N[C@@H](Cc1c[nH]cn1)C(=O)N[C@H](C(=O)NCC(=O)N[C@@H](CCCCN)C(=O)N[C@@H](CCCCN)C(=O)N[C@H](C(=O)NCC(=O)N[C@@H](CCCCN)C(=O)N[C@H](C(=O)N[C@@H](C)C(=O)N[C@@H](CC(C)C)C(=O)N[C@@H](CC(N)=O)C(=O)N[C@@H](C)C(=O)N[C@@H](Cc1ccc(O)cc1)C(=O)N[C@@H](CC(C)C)C(N)=O)C(C)C)C(C)C)C(C)C | – | zebrafish embryos 28 hpf, E3 medium | 24 h | – | chronic toxic concentration | 5 µM |
| C/C(=N\OCCCN1CCCCC1)c1ccc(C(F)(F)F)cc1 | – | mouse, plasma | oral, 150 mg/kg once daily, day 1 | – | Cmax | 2.74 ± 0.339 µg/mL |
| CC[C@H](C)[C@H](NC(=O)[C@H](CCCN)NC(=O)[C@H](CCCNC(=N)N)NC(=O)[C@@H]1CCCN1C(=O)[C@@H]1CCCN1C(=O)[C@H](CCCNC(=N)N)NC(=O)[C@@H]1CCCN1C(=O)[C@H](CCCNC(=N)N)NC(=O)[C@@H]1CCCN1C(=O)[C@H](CC(C)C)NC(=O)[C@H](Cc1ccc(O)cc1)NC(=O)[C@@H]1CCCN1C(=O)[C@@H]1CCCN1C(=O)[C@H](CCCCN)NC(=O)[C@H](CC(=O)O)NC(=O)[C@@H](N)C(C)C)C(=O)N[C@@H](Cc1ccc(O)cc1)C(=O)N[C@@H](CC(N)=O)C(=O)N[C@@H](CCCN)C(N)=O | LC-MS | CD-1 mice, urine | subcutaneous, dose not given, 1 h | – | urine concentration | not detected |
| O=C1NC2(CC2)COc2ncc(F)cc2[C@H]2COCCN2c2ccn3ncc1c3n2 | – | Sprague-Dawley rat, female, spleen | oral, 5 mg/kg/day, 4 weeks dosing, end of recovery | – | organ-to-brain weight ratio | 38.2 ± 8.16% |
